Assay results collected from several papers.
Lines come from different studies, so protocols differ.
Ectonucleoside triphosphate diphosphohydrolase 2: Ectonucleoside triphosphate diphosphohydrolase 2 (Homo sapiens, UniProt Q9Y5L3)
Chain of UniProt Q9Y5L3 (whole entry, looked up): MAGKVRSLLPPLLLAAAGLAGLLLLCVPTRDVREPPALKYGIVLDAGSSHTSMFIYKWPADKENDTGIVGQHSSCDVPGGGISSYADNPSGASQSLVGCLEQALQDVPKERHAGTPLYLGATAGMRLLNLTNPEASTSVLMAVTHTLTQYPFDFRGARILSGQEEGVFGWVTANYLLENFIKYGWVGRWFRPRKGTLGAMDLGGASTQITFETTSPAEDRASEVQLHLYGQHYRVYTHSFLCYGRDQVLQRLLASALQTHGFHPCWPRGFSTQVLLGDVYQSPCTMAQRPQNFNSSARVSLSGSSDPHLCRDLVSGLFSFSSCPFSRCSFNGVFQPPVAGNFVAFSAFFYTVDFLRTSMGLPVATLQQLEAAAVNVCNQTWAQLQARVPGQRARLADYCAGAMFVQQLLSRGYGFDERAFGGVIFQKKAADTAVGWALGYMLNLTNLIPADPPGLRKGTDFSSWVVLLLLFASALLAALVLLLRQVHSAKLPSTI
CDK2 with cyclin A2: Cyclin-dependent kinase 2, with cyclin A2 (CDK2, Homo sapiens, UniProt P24941)
SIRT6: NAD-dependent protein deacylase sirtuin-6 (SIRT6, Homo sapiens, UniProt Q8N6T7)
Chain of UniProt Q8N6T7 (whole entry, looked up): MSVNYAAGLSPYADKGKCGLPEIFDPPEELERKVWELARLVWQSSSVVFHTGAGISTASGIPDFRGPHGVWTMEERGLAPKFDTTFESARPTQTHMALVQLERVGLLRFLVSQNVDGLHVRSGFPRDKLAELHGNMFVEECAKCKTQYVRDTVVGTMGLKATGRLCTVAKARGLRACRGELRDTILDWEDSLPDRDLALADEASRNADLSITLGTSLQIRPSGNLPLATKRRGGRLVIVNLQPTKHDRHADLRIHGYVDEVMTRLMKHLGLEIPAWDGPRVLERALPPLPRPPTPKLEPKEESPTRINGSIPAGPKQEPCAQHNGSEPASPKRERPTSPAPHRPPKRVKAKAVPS
AKR1C3: Aldo-keto reductase family 1 member C3 (AKR1C3, Homo sapiens, UniProt P42330)
Chain of UniProt P42330 (whole entry, looked up): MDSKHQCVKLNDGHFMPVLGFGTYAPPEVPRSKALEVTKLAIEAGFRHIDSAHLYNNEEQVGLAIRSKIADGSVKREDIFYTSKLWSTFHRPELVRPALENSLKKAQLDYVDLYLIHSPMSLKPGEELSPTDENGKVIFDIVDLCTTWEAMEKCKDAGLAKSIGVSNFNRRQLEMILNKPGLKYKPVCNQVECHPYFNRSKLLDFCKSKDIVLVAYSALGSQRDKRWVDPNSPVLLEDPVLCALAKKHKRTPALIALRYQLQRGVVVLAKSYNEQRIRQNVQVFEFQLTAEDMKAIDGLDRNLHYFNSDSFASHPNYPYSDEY
DNMT3A catalytic domain: DNA (cytosine-5)-methyltransferase 3A, catalytic domain (DNMT3A, Homo sapiens, UniProt Q9Y6K1)
ST6GAL1: Beta-galactoside alpha-2,6-sialyltransferase 1 (ST6GAL1, Homo sapiens, UniProt P15907)
Chain of UniProt P15907 (whole entry, looked up): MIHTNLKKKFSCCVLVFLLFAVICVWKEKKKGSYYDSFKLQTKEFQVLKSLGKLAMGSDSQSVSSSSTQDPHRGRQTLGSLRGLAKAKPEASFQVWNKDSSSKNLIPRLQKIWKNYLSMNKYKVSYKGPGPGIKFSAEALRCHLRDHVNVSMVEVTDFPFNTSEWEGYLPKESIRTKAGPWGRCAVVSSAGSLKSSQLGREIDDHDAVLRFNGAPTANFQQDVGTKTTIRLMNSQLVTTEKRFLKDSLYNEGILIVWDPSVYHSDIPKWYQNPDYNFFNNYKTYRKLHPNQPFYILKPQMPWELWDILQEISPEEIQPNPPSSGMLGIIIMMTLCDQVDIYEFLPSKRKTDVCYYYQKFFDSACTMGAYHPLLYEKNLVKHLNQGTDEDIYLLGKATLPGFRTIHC
MAL12: Alpha-glucosidase MAL12 (MAL12, Saccharomyces cerevisiae S288c, UniProt P53341)
Chain of UniProt P53341 (whole entry, looked up): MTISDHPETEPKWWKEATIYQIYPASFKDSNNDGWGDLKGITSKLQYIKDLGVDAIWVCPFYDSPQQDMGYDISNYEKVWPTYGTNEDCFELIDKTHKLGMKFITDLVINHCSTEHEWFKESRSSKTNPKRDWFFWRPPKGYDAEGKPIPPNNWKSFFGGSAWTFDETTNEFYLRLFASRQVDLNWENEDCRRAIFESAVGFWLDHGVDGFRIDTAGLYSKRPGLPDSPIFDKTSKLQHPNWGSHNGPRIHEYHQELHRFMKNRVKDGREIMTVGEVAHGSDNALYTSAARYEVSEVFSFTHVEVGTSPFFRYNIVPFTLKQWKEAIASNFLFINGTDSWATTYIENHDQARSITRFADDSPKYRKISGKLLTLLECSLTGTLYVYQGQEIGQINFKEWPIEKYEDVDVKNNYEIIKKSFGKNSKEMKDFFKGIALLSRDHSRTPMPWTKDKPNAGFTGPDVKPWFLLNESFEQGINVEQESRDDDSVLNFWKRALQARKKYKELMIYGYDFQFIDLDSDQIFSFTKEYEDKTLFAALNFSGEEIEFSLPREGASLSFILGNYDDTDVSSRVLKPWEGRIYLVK
Genome polyprotein protease: Genome polyprotein, protease (Dengue virus type 2, UniProt P14340)
Chain of UniProt Q8VDG7 (whole entry, looked up): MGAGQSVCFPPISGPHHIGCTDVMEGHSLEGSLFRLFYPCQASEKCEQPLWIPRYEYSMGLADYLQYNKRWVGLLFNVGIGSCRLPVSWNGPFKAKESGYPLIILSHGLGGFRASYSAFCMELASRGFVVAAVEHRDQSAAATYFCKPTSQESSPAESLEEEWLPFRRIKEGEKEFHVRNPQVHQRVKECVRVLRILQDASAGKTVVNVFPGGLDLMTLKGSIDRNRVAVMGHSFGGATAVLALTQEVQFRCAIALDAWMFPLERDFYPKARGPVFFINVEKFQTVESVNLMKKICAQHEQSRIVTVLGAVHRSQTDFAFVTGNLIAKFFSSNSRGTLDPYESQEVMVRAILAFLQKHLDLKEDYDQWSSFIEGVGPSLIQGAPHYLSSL
Chain of UniProt Q8TF76 (whole entry, looked up): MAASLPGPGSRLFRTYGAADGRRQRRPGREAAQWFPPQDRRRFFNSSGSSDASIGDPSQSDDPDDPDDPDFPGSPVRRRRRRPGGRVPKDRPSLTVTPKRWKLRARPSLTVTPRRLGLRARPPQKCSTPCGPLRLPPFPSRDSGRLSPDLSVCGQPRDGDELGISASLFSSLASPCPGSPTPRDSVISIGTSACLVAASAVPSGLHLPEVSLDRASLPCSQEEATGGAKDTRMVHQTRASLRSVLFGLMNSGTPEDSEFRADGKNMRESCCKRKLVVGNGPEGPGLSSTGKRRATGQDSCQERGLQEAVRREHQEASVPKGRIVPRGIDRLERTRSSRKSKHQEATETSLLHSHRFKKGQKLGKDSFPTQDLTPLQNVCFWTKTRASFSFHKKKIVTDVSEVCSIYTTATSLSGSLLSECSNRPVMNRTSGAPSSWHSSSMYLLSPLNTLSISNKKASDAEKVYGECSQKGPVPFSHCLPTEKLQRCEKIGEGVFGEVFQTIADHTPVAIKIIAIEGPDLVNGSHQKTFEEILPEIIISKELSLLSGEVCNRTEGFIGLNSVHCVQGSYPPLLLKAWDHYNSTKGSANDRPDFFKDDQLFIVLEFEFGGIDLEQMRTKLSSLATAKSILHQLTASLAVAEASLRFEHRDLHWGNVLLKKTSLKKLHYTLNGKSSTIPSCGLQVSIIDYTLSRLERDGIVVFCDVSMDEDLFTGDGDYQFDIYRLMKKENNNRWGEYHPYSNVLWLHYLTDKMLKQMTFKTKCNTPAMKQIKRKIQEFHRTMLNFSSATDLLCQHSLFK
Chain of UniProt Q9BVS4 (whole entry, looked up): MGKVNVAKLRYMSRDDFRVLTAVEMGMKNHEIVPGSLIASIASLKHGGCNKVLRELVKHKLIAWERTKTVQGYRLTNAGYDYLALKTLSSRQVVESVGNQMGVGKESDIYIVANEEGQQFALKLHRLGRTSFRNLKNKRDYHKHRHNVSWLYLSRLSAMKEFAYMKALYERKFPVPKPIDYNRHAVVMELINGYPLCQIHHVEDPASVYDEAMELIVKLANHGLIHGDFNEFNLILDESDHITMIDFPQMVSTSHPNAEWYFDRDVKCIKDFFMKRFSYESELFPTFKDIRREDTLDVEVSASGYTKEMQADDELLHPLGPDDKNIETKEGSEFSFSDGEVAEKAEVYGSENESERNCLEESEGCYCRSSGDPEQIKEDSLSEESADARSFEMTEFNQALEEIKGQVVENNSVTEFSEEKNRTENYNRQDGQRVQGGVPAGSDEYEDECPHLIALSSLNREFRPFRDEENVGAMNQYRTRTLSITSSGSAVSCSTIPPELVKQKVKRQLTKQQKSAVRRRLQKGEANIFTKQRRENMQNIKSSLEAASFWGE

Structure (SMILES) | target | assay | system | conditions | scale | inhibition
O=C(c1cccc(S(=O)(=O)NC2CC2)c1)N1CCOCC1 | Ectonucleoside triphosphate diphosphohydrolase 2 | enzyme activity, inhibitor, absorbance |  | 100 µM |  | 44%
Cc1cc(NC(=O)[C@H](O)c2cc(F)cc(F)c2)ccc1-c1cnc(N)c(C(=O)NC(C)C)c1 | RIOK2 (Homo sapiens, UniProt Q9BVS4) | cell-free assay, competition with immobilised ligand |  | 1 µM |  | > 50%
CN(C)c1ccc(NC(=S)N(C)c2ccccc2)cc1 | Microtubule-associated protein tau, 0N3R isoform (MAPT, Homo sapiens, UniProt P10636) | fibril formation, ThT fluorescence |  | 100 µM, 18 h, together with: tau 10 µM |  | 7%
Nc1ccccc1NC(=O)c1ccc(Nc2nccc(-c3cn(C4CCCC4)nn3)n2)cc1 | CDK2 with cyclin A2 | enzyme activity, inhibitor, TR-FRET |  | 50 nM |  | 1.75%
CCOC(=O)c1cccc(NC(=O)[C@H](CNC(=O)Cn2cc(C(N)=O)c(=O)[nH]c2=O)NC(=O)CCc2nc(-c3cccnc3)no2)c1 | SIRT6 | demyristoylation |  | 10 µM |  | 29%
COc1ccc2c(c1)CC[C@@H]1[C@@H]2CC[C@@]2(C)CCC[C@@H]12 | AKR1C3 | enzyme activity, inhibitor, absorbance |  | 10 µM, pH 9 |  | 21.1%
OC[C@H]1O[C@@H](Sc2ccccc2)[C@H](O)[C@@H](O)[C@@H]1O | SLC5A1 (Homo sapiens, UniProt P13866) | transporter uptake, inhibitor, radiometric | CHO | 10 µM |  | 23.2%
Cc1cc(Nc2ccc(NC(=O)c3ccc(NC(=O)c4ccncc4)cc3)cc2)nc(N)n1 | DNMT3A catalytic domain | enzyme activity, inhibitor, restriction-based fluorescence |  | 20 µM |  | 0%
C[C@@]12CC[C@@H]3c4ccc(O)c(I)c4CC[C@H]3[C@@H]1CCC2=O | AKR1C3 | enzyme activity, inhibitor, absorbance |  | 100 µM, pH 9 |  | 85.7%
COc1cc(C(=O)NC2CCC(N3CCN(CC4CCC5(CCCC5)C4)CC3)CC2)c(F)cc1Nc1ncc2c(n1)N(C1CCCC1(F)F)CC(F)(F)C(=O)N2C (centres unmarked) | MERTK (Homo sapiens, UniProt Q12866) | cell-free assay, TR-FRET |  | 10 µM |  | 0.19%
Cc1ccc(O)c(C(=O)Nc2ccc(CN)cc2)c1 | Procathepsin L (CTSL, Homo sapiens, UniProt P07711) | enzyme activity, inhibitor |  | 10 µM |  | < 20%
Nc1ccccc1NC(=O)c1ccc(Nc2nccc(-c3cn(C4CCCCC4)nn3)n2)cc1 | CDK2 with cyclin A2 | enzyme activity, inhibitor, TR-FRET |  | 5 µM |  | 23.9%
CC(C)CCC[C@@H](C)[C@H]1CCC([C@@H]2CC[C@H]3C[C@@H](O)CC[C@]3(C)[C@@H]2O)[C@]1(C)CC(=O)O (some centres unmarked) | Bile acid receptor (NR1H4, Homo sapiens, UniProt Q96RI1) | reporter gene, antagonist, luciferase | HEK-293T | 10 µM |  | 89.5%
COc1ccc2[nH]cc(C(C[C@@H](NC(=O)CC[C@@H](C)[C@H]3CC[C@H]4[C@@H]5CC[C@@H]6C[C@H](O)CC[C@]6(C)[C@H]5CC[C@]34C)C(=O)O)c3c[nH]c4ccc(OC)cc34)c2c1 | ST6GAL1 | enzyme activity, inhibitor, UPLC |  | 25 µM |  | 84%
Cc1cccc(/C=C/C(=O)c2cnn(-c3ccccc3)c2C)c1 | MAL12 | enzyme activity, inhibitor |  | 40 µM |  | 11.8%
O=C(N1CCCC1)n1cc(-c2ccc(-c3ccccc3)cc2)nn1 | Platelet-activating factor acetylhydrolase 2, cytoplasmic (Mus musculus, UniProt Q8VDG7) | enzyme activity, competitive ABPP-SILAC | mouse T cells | 3 nM, 4 h |  | > 97%
C[C@H](CCC(=O)N[C@H](CC(c1c[nH]c2ccc(N=[N+]=[N-])cc12)c1c[nH]c2ccc(N=[N+]=[N-])cc12)C(=O)O)[C@H]1CC[C@H]2[C@@H]3CC[C@@H]4C[C@H](O)CC[C@]4(C)[C@H]3CC[C@]12C (some centres unmarked) | Sialyltransferase ST3Gal-I (Rattus norvegicus, UniProt Q6H8N0) | enzyme activity, inhibitor, UPLC |  | 500 µM |  | 5%
Oc1c(C(Nc2nccs2)c2cccc(OCc3ccccc3)c2)ccc2cccnc12 (centres unmarked) | Genome polyprotein protease | enzyme activity, inhibitor, fluorescence |  | 25 µM |  | 83.4%
NOCC(=O)O | CBS (Homo sapiens, UniProt P35520) | enzyme activity, inhibitor, fluorescence |  | 100 µM |  | 94%
Oc1c(C(Nc2nc3ccccc3s2)c2ccccc2OCc2ccccc2)ccc2cccnc12 (centres unmarked) | Genome polyprotein protease | enzyme activity, inhibitor, fluorescence |  | 10 µM |  | 72.6%
Cc1ccc(C(C)C)cc1.Oc1ccccc1C=NNC1=Nc2ccccc2-c2[nH]c3ccc(Br)cc3c2C1.[Cl-].[Cl][Ru+] | Cyclin-dependent kinase 2, with cyclin E (CDK2, Homo sapiens, UniProt P24941) | inhibitor, radiometric kinase |  | 10 µM, together with: cyclin E, histone H1 substrate | relative to: flavopiridol | ~50%
CS(=O)(=O)Nc1ccc2c(c1)[C@H](O)CC1(CCN([C@@H]3CCc4cc(C#N)ccc4C3)CC1)O2 | KCNH2 (Homo sapiens, UniProt Q12809, D540A) | ion current, inhibitor, two-electrode voltage clamp |  | 2 µM, oocytes |  | > 90%

Structure (SMILES) | target | assay | system | conditions | scale | inhibition
CCCCCCCn1c(=O)[nH]c2ccccc21 | KCNN4 (Homo sapiens, UniProt O15554) | ion current, inhibitor, whole-cell patch clamp |  | 50 µM |  | 50%
CC(C)Cn1cc(-c2ccnc(Nc3ccc(N4CCN(CCCCCCC(=O)NO)CC4)cc3)n2)nn1 | CDK2 with cyclin A2 | enzyme activity, inhibitor, TR-FRET |  | 50 nM |  | -11.4%
CCCCCCCCCCCCCC(=S)NCCCC[C@H](NC(=O)CNC(=O)CN)C(=O)NCC(=O)O | SIRT6 | enzyme activity, inhibitor |  | 50 µM |  | 18%
C[C@@]12CC[C@@H]3c4cc(Br)c(O)c(Br)c4CC[C@H]3[C@@H]1CCC2=O | AKR1C3 | enzyme activity, inhibitor, absorbance |  | 10 µM, pH 9 |  | 27.9%
C[C@H](CCC(=O)N[C@H](CC(c1c[nH]c2ccc(NC(=O)OC(C)(C)C)cc12)c1c[nH]c2ccc(NC(=O)OC(C)(C)C)cc12)C(=O)O)[C@H]1CC[C@H]2[C@@H]3CC[C@@H]4C[C@H](O)CC[C@]4(C)[C@H]3CC[C@]12C | ST6GAL1 | enzyme activity, inhibitor, UPLC |  | 25 µM |  | 82%
COc1ccc(-c2cc(C(F)(F)F)cc(S(=O)(=O)NCC(=O)Nc3ccc(C)cc3)n2)cc1 | WRN (Homo sapiens, UniProt Q14191) | ATPase activity, ADP-Glo |  | concentration not given |  | inactive
NC(=O)c1ccc(C(=O)NOCc2ccc(Sc3cccc(Cl)c3)c(C(F)(F)F)c2)cc1 | HDAC5 (Homo sapiens, UniProt Q9UQL6) | cell-free assay, inhibitor |  | 100 µM |  | 9.1%
C[C@@H](N)C1CCN(S(=O)(=O)c2cccc3cnccc23)CC1 | HASPIN (Homo sapiens, UniProt Q8TF76) | cell-free assay, competition with immobilised ligand |  | 10 µM |  | > 95%
C[C@]12CC[C@@H]3c4cc(Br)c(O)cc4CC[C@H]3[C@@H]1CCC2=O | AKR1C3 | enzyme activity, inhibitor, absorbance |  | 10 µM, pH 9 |  | 13%
Cc1ccc(NC(=O)c2cccc(S(=O)(=O)N3CCOCC3)c2)c(C)c1 | Ectonucleoside triphosphate diphosphohydrolase 2 | enzyme activity, inhibitor, absorbance |  | 100 µM |  | 31%
COc1c(-c2cccc(O)c2)oc2c(OC)c(O)cc(O)c2c1=O | MAL12 | enzyme activity, inhibitor, absorbance |  | 2.5 µM |  | 20.2%
CN(C1COC1)C(C)(C)/C=C(\C#N)C(=O)N1CCC[C@H]1Cn1nc(-c2ccc(Oc3ccccc3)cc2F)c2c(N)ncnc21 | BMX (Homo sapiens, UniProt P51813) |  |  | 1 µM, mean |  | > 90%
COc1cc2c(cc1Cl)[C@H]1CC[C@@]3(C)C(=O)CC[C@H]3[C@@H]1CC2 | AKR1C3 | enzyme activity, inhibitor, absorbance |  | 100 µM, pH 9 |  | ≥ 80%
C[C@H](CCC(=O)N[C@H](CC(c1c[nH]c2ccc(OCc3ccccc3)cc12)c1c[nH]c2ccc(OCc3ccccc3)cc12)C(=O)O)[C@H]1CC[C@H]2[C@@H]3CC[C@@H]4C[C@H](O)CC[C@]4(C)[C@H]3CC[C@]12C | ST6GAL1 | enzyme activity, inhibitor, UPLC |  | 25 µM |  | 100%
CC[C@H](C)[C@H](NC(=O)[C@@H](N)Cc1c[nH]cn1)C(=O)N[C@@H](CCCCN)C(=O)N[C@@H](CCC(N)=O)C(=O)N[C@@H](CC(=O)O)C(=O)N[C@@H](CCC(=O)O)C(=O)N[C@@H](CCCNC(=N)N)C(=O)N[C@H](C(=O)N[C@H](C(=O)N[C@@H](CCSC)C(=O)NCC(=O)N[C@@H](CCC(N)=O)C(=O)N[C@@H](CC(N)=O)C(=O)NCC(=O)O)[C@@H](C)O)C(C)C | Neural cell adhesion molecule L1, extracellular domain (Homo sapiens, UniProt P32004) | L1CAM homophilic binding, surface plasmon resonance |  | 1 to 100 µM, 25 °C, together with: soluble L1CAM ectodomain 50 nM |  | ≤ 40%
COc1ccc2c(c1)CC[C@@H]1[C@@H]2CC[C@]2(C)C(=O)CC[C@@H]12 | AKR1C3 | enzyme activity, inhibitor, absorbance |  | 10 µM, pH 9 |  | 16.7%
COCCNC(=O)[C@H](CNC(=O)Cn1cc(C(N)=O)c(=O)[nH]c1=O)NC(=O)CCc1nc(-c2cccnc2)no1 | SIRT6 | demyristoylation |  | 10 µM |  | 9%
C[C@@]12CC[C@@H]3c4cc(I)c(O)c(I)c4CC[C@H]3[C@@H]1CCC2=O | AKR1C3 | enzyme activity, inhibitor, absorbance |  | 100 µM, pH 9 |  | 50%
Oc1c(C(Nc2nccs2)c2ccccc2OCc2ccccc2)ccc2cccnc12 (centres unmarked) | Genome polyprotein protease | enzyme activity, inhibitor, fluorescence |  | 25 µM |  | 83.1%
Cc1cc(Nc2ccc(NC(=O)c3ccc(NC(=O)c4cccnc4)cc3)cc2)nc(N)n1 | DNMT3A catalytic domain | enzyme activity, inhibitor |  | 10 µM |  | 0%
O=C(Nc1ccc(Cl)cc1)c1cccc(S(=O)(=O)N2CCOCC2)c1 | Ectonucleoside triphosphate diphosphohydrolase 2 | enzyme activity, inhibitor, absorbance |  | 100 µM |  | 15%
C[C@@]12CC[C@@H]3c4ccc(O)cc4CC[C@H]3[C@@H]1CCC2=O | AKR1C3 | enzyme activity, inhibitor, absorbance |  | 10 µM, pH 9 |  | 22.5%

Repeated from above:
Structure (SMILES) | target | assay | system | conditions | scale | inhibition
CS(=O)(=O)Nc1ccc2c(c1)[C@H](O)CC1(CCN([C@@H]3CCc4cc(C#N)ccc4C3)CC1)O2 | KCNH2 (Homo sapiens, UniProt Q12809, D540A) | ion current, inhibitor, two-electrode voltage clamp |  | 2 µM, oocytes |  | > 90%
CCCCCCCn1c(=O)[nH]c2ccccc21 | KCNN4 (Homo sapiens, UniProt O15554) | ion current, inhibitor, whole-cell patch clamp |  | 50 µM |  | 50%
CC(C)Cn1cc(-c2ccnc(Nc3ccc(N4CCN(CCCCCCC(=O)NO)CC4)cc3)n2)nn1 | CDK2 with cyclin A2 | enzyme activity, inhibitor, TR-FRET |  | 50 nM |  | -11.4%
CCCCCCCCCCCCCC(=S)NCCCC[C@H](NC(=O)CNC(=O)CN)C(=O)NCC(=O)O | SIRT6 | enzyme activity, inhibitor |  | 50 µM |  | 18%
